Published values gathered from unrelated publications.
Compare with care: the assays were run in different laboratories. ± gives the spread as reported.

SMILES = CC(C)C[C@H](NC(=O)[C@H](Cc1ccc(O)cc1)NC(=O)[C@@H](CCCNC(=N)N)NC(=O)[C@@H](CO)NC(=O)[C@H](Cc1ccccc1)NC(=O)[C@H](CC1CCCCC1)NC(=O)[C@H](CC(=O)O)NC(=O)CCC(C(=O)O)N1CCCN2CCN(CCCN(CC(=O)O)CC2)CC1)C(=O)N[C@@H](Cc1c[nH]c2ccccc12)C(=O)N[C@@H](CO)C(=O)O (stereo partly drawn) [copper-64 labelled]; host = female NMRI nude mice; matrix = brain; time = 1 h p.i.; tissue uptake = 0.1 ± 0.1 %ID/g
SMILES = N=C(N)NCCC[C@H](NC(=O)[C@H](CCCCN)NC(=O)[C@H](CCC(N)=O)NC(=O)CCOCCOCCOCCNC(=O)CN1CCN(CC(=O)O)CCN(CC(=O)O)CCN(CC(=O)O)CC1)C(=O)N[C@@H](CCCCN)C(=O)N[C@@H](CCCNC(=N)N)C(=O)N[C@@H](CCCCN)C(=O)N[C@@H](CCCCN)C(=O)N[C@@H](CO)C(=O)N[C@@H](CCCNC(=N)N)C(=O)N[C@@H](Cc1ccc(O)cc1)C(=O)N[C@@H](CCCCN)C(=O)N[C@@H](CO)C(=O)O [copper-64 labelled]; host = male C57BL/6 mice, B16-F10 tumour; matrix = testis; route = intravenous; time = 60 min; tissue uptake = 0.39 ± 0.05 %ID/g
SMILES = N=C(N)NCCC[C@@H]1NC(=O)[C@H](CCCCNC(=O)CC[C@H](NC(=O)CCOCCOCCOCCOCCNC(=O)CC[C@H](NC(=O)CN2CCN(CC(=O)O)CCN(CC(=O)O)CCN(CC(=O)O)CC2)C(=O)NCCOCCOCCOCCOCCC(=O)N[C@@H](CCC(=O)NCCCC[C@@H]2NC(=O)[C@@H](Cc3ccccc3)NC(=O)[C@H](CC(=O)O)NC(=O)CNC(=O)[C@H](CCCNC(=N)N)NC2=O)C(=O)NCCCC[C@@H]2NC(=O)[C@@H](Cc3ccccc3)NC(=O)[C@H](CC(=O)O)NC(=O)CNC(=O)[C@H](CCCNC(=N)N)NC2=O)C(=O)NCCCC[C@@H]2NC(=O)[C@@H](Cc3ccccc3)NC(=O)[C@H](CC(=O)O)NC(=O)CNC(=O)[C@H](CCCNC(=N)N)NC2=O)NC(=O)[C@@H](Cc2ccccc2)NC(=O)[C@H](CC(=O)O)NC(=O)CNC1=O [indium-111 labelled]; host = female athymic nude mice; matrix = brain; route = intravenous; dose = 3 µCi; time = 1 h; setting = U-87 MG glioma xenograft; tissue uptake = 0.12 ± 0.04 %ID/g
SMILES = N=C(N)NCCC[C@@H]1NC(=O)[C@H](CCCCNC(=O)CNC(=O)CNC(=O)CNC(=O)CC[C@H](NC(=O)CNC(=O)CNC(=O)CNC(=O)[C@H](CCCCNC(=O)c2ccc(NN)nc2)NC(=O)c2ccc(NN)nc2)C(=O)NCC(=O)NCC(=O)NCC(=O)NCCCC[C@@H]2NC(=O)[C@@H](Cc3ccccc3)NC(=O)[C@H](CC(=O)O)NC(=O)CNC(=O)[C@H](CCCNC(=N)N)NC2=O)NC(=O)[C@@H](Cc2ccccc2)NC(=O)[C@H](CC(=O)O)NC(=O)CNC1=O [technetium-99m labelled]; host = female athymic nude mice; matrix = liver; route = intravenous; dose = 0.1 MBq; time = 1 h; setting = U-87 MG glioma xenograft; tissue uptake = 2.61 ± 0.59 %ID/g
SMILES = N=C(N)NCCC[C@@H]1NC(=O)[C@H](CCCCNC(=O)CCOCCOCCOCCOCCNC(=O)CC[C@H](NC(=O)CCOCCOCCOCCOCCNC(=O)CC[C@H](NC(=O)CN2CCN(CC(=O)O)CCN(CC(=O)O)CCN(CC(=O)O)CC2)C(=O)NCCOCCOCCOCCOCCC(=O)N[C@@H](CCC(=O)NCCOCCOCCOCCOCCC(=O)NCCCC[C@@H]2NC(=O)[C@@H](Cc3ccccc3)NC(=O)[C@H](CC(=O)O)NC(=O)CNC(=O)[C@H](CCCNC(=N)N)NC2=O)C(=O)NCCOCCOCCOCCOCCC(=O)NCCCC[C@@H]2NC(=O)[C@@H](Cc3ccccc3)NC(=O)[C@H](CC(=O)O)NC(=O)CNC(=O)[C@H](CCCNC(=N)N)NC2=O)C(=O)NCCOCCOCCOCCOCCC(=O)NCCCC[C@@H]2NC(=O)[C@@H](Cc3ccccc3)NC(=O)[C@H](CC(=O)O)NC(=O)CNC(=O)[C@H](CCCNC(=N)N)NC2=O)NC(=O)[C@@H](Cc2ccccc2)NC(=O)[C@H](CC(=O)O)NC(=O)CNC1=O [indium-111 labelled]; host = female athymic nude mice; matrix = eyes; route = intravenous; dose = 3 µCi; time = 72 h; setting = U-87 MG glioma xenograft; tissue uptake = 0.48 ± 0.06 %ID/g
SMILES = CSCC[C@H](NC(=O)[C@H](CC(C)C)NC(=O)[C@H](Cc1c[nH]cn1)NC(=O)CNC(=O)[C@@H](NC(=O)[C@H](C)NC(=O)[C@H](Cc1c[nH]c2ccccc12)NC(=O)[C@H](CCC(N)=O)NC(=O)CCCCCCCNC(=O)CCC(=O)Nc1ccc(CNC23CNCCNCC(N)(CNCCNC2)CNCCNC3)cc1)C(C)C)C(N)=O [copper-64 labelled]; host = female SCID mice, PC-3 xenograft; matrix = liver; route = intravenous; dose = 0.6 MBq; time = 24 h; tissue uptake = 4.68 ± 0.289 %ID/g
SMILES = N=C(N)NCCC[C@@H]1NC(=O)[C@H](CCCCNC(=O)CCOCCOCCOCCOCCNC(=O)CC[C@H](NC(=O)[C@H](CCCCNC(=O)c2ccc(NN)nc2)NC(=O)c2ccc(NN)nc2)C(=O)NCCOCCOCCOCCOCCC(=O)NCCCC[C@@H]2NC(=O)[C@@H](Cc3ccccc3)NC(=O)[C@H](CC(=O)O)NC(=O)CNC(=O)[C@H](CCCNC(=N)N)NC2=O)NC(=O)[C@@H](Cc2ccccc2)NC(=O)[C@H](CC(=O)O)NC(=O)CNC1=O [technetium-99m labelled]; host = female athymic nude mice; matrix = liver; route = intravenous; dose = 0.1 MBq; time = 1 h; setting = U-87 MG glioma xenograft; tissue uptake = 2.74 ± 0.5 %ID/g
SMILES = CSCC[C@H](NC(=O)[C@H](CC(C)C)NC(=O)[C@H](Cc1c[nH]cn1)NC(=O)CNC(=O)[C@@H](NC(=O)[C@H](C)NC(=O)[C@H](Cc1c[nH]c2ccccc12)NC(=O)[C@H](CCC(N)=O)NC(=O)CNC(=O)[C@H](CO)NC(=O)CNC(=O)CCCCCCCNC(=O)CCC(=O)Nc1ccc(CNC23CNCCNCC(N)(CNCCNC2)CNCCNC3)cc1)C(C)C)C(N)=O [copper-64 labelled]; host = female SCID mice, PC-3 xenograft; matrix = lung; route = intravenous; dose = 0.6 MBq; time = 1 h; tissue uptake = 1.24 ± 0.062 %ID/g
SMILES = N=C(N)NCCC[C@@H]1NC(=O)[C@H](CCCCNC(=O)CC[C@H](NC(=O)CCOCCOCCOCCOCCNC(=O)CN2CCN(CC(=O)O)CCN(CC(=O)O)CCN(CC(=O)O)CC2)C(=O)NCCCC[C@@H]2NC(=O)[C@@H](Cc3ccccc3)NC(=O)[C@H](CC(=O)O)NC(=O)CNC(=O)[C@H](CCCNC(=N)N)NC2=O)NC(=O)[C@@H](Cc2ccccc2)NC(=O)[C@H](CC(=O)O)NC(=O)CNC1=O [indium-111 labelled]; host = female athymic nude mice; matrix = heart; route = intravenous; dose = 3 µCi; time = 24 h; setting = U-87 MG glioma xenograft; tissue uptake = 0.35 ± 0.05 %ID/g
